# Published values collected from several papers.
# Each line is one published result; not all experiments were run side by side. ± marks the error that the study gave.
# Organism: SARS-CoV-2
SMILES,assay,test system,conditions,how to read,endpoint,value
O=C(O)C(O)=CC(=O)C1(Cc2ccc(Cl)cc2)CCN(C(=O)OCc2ccccc2)CC1,viral replication,VeroE6-TMPRSS2,,,EC50,19000 ± 3700 nM
CC[C@H](C)[C@H](NC(=O)[C@H](C)NC(=O)[C@H](CCC(=O)O)NC(=O)[C@H](CCC(=O)O)NC(=O)[C@H](CC(C)C)NC(=O)[C@H](CCCCN)NC(=O)[C@H](CCCCN)NC(=O)[C@H](CCSC)NC(=O)[C@H](CCC(=O)O)NC(=O)[C@H](Cc1ccc(O)cc1)NC(=O)[C@H](CCC(=O)O)NC(=O)[C@H](CC(C)C)NC(=O)[C@H](CC(=O)O)NC(=O)[C@H](CC(C)C)NC(=O)[C@H](Cc1ccccc1)NC(=O)[C@@H](NC(=O)[C@@H](NC(=O)[C@H](CC(N)=O)NC(=O)[C@@H](NC(=O)[C@H](CCC(N)=O)NC(=O)[C@H](CC(=O)O)NC(=O)[C@H](CC(C)C)NC(=O)[C@H](CO)NC(=O)[C@H](CC(C)C)NC(=O)[C@H](CC(=O)O)NC(=O)[C@@H]1CCCN1C(=O)[C@H](C)N)[C@@H](C)CC)C(C)C)[C@@H](C)O)C(=O)N[C@@H](CCCCN)C(=O)N[C@@H](CCCCN)C(=O)N[C@@H](CC(C)C)C(=O)N[C@@H](CCC(=O)O)C(=O)N[C@@H](CCC(=O)O)C(=O)N[C@@H](CO)C(=O)N[C@@H](Cc1ccc(O)cc1)C(=O)N[C@H](C(=O)N[C@@H](CC(=O)O)C(=O)N[C@@H](CC(C)C)C(=O)N[C@@H](CCCCN)C(=O)N[C@@H](CCC(=O)O)C(=O)N[C@@H](CC(C)C)C(=O)O)[C@@H](C)CC,"pseudovirus infection, inhibitor, luciferase","Caco-2, D614G pseudovirus",24 h,,IC50,350 nM
O=C(NC1CCN(c2ncnc3[nH]cnc23)CC1)c1cccc(S(=O)(=O)Nc2ccc(Cl)cc2)c1,,Wuhan-Hu-1,200 µM,baseline: untreated infected cells,relative infection,17.6%
N#Cc1ccccc1C[C@@H](N)C(=O)N[C@H](Cc1ccc(Cl)cc1Cl)C(=O)N[C@H](CC(=O)NCCCC(N)=O)Cc1ccc(F)cc1,viral replication,USA-WA1/2020,,,EC50,6500 nM
CC(C)(C)c1ccc(-c2cn(-c3ccc(C(=O)C=C(O)C(=O)O)cc3)nn2)cc1,viral replication,VeroE6-TMPRSS2,,,EC50,8500 ± 1300 nM
COc1ccc(S(=O)(=O)Nc2cccc(C(=O)NC3CCN(c4ncnc5[nH]cnc45)CC3)c2)cc1,,Wuhan-Hu-1,7.407 µM,baseline: untreated infected cells,relative infection,39.7%
N#Cc1ccccc1C[C@@H](N)C(=O)N[C@H](Cc1ccc(Cl)cc1Cl)C(=O)N[C@H](CC(=O)NCCCS(N)(=O)=O)Cc1ccc(F)cc1,viral replication,USA-WA1/2020,,,EC50,7000 nM
CC[C@H](C)[C@H](NC(=O)[C@H](C)NC(=O)[C@H](CCC(=O)O)NC(=O)[C@H](CCC(=O)O)NC(=O)[C@H](CC(C)C)NC(=O)[C@H](CCCCN)NC(=O)[C@H](CCCCN)NC(=O)[C@H](CCSC)NC(=O)[C@H](CCC(=O)O)NC(=O)[C@H](Cc1ccc(O)cc1)NC(=O)[C@H](CCC(=O)O)NC(=O)[C@H](CC(C)C)NC(=O)[C@H](CC(=O)O)NC(=O)[C@H](CC(C)C)NC(=O)[C@H](Cc1ccccc1)NC(=O)[C@@H](NC(=O)[C@@H](NC(=O)[C@H](CC(N)=O)NC(=O)[C@@H](NC(=O)[C@H](CCC(N)=O)NC(=O)[C@H](CC(=O)O)NC(=O)[C@H](CC(C)C)NC(=O)[C@@H](N)CO)[C@@H](C)CC)C(C)C)[C@@H](C)O)C(=O)N[C@@H](CCCCN)C(=O)N[C@@H](CCCCN)C(=O)N[C@@H](CC(C)C)C(=O)N[C@@H](CCC(=O)O)C(=O)N[C@@H](CCC(=O)O)C(=O)N[C@@H](C)C(=O)N[C@@H](Cc1ccc(O)cc1)C(=O)N[C@H](C(=O)N[C@@H](CC(=O)O)C(=O)N[C@@H](CC(C)C)C(=O)N[C@@H](CCCCN)C(=O)N[C@@H](CCC(=O)O)C(=O)N[C@@H](CC(C)C)C(=O)O)[C@@H](C)CC,"pseudovirus infection, inhibitor, luciferase","Caco-2, D614G pseudovirus",24 h,,IC50,260 nM
Cc1ccc(S(=O)(=O)Nc2cccc(C(=O)NC3CCN(c4ncnc5[nH]cnc45)CC3)c2)cc1Cl,,Wuhan-Hu-1,2.469 µM,baseline: untreated infected cells,relative infection,51.5%
CN(C)CCCCNC(=O)C[C@H](Cc1ccc(F)cc1)NC(=O)[C@@H](Cc1ccc(Cl)cc1Cl)NC(=O)[C@@H](O)Cc1ccccc1C#N,viral replication,USA-WA1/2020,,,EC50,1400 nM
O=C(NCc1ccc(F)cc1)C1C(=O)N(O)C(=O)c2cc([N+](=O)[O-])ccc21 (stereo not drawn),viral replication,VeroE6,50 µM,,inhibition,10%
O=C(NC1CCN(c2ncnc3[nH]cnc23)CC1)c1cccc(NS(=O)(=O)c2ccc(Cl)cc2)c1,,Wuhan-Hu-1,0.01016 µM,baseline: untreated infected cells,relative infection,84.4%
CC[C@H](C)[C@H](NC(=O)[C@H](C)NC(=O)[C@H](CCC(=O)O)NC(=O)[C@H](CCC(=O)O)NC(=O)[C@H](CC(C)C)NC(=O)[C@H](CCCCN)NC(=O)[C@H](CCCCN)NC(=O)[C@H](CCSC)NC(=O)[C@H](CCC(=O)O)NC(=O)[C@H](Cc1ccc(O)cc1)NC(=O)[C@H](CCC(=O)O)NC(=O)[C@H](CC(C)C)NC(=O)[C@H](CC(=O)O)NC(=O)[C@H](CC(C)C)NC(=O)[C@H](Cc1ccccc1)NC(=O)[C@H](Cc1ccccc1)NC(=O)[C@@H](NC(=O)[C@H](CC(N)=O)NC(=O)[C@@H](NC(=O)[C@H](CCC(N)=O)NC(=O)[C@H](CC(=O)O)NC(=O)[C@H](CC(C)C)NC(=O)[C@@H](N)CO)[C@@H](C)CC)C(C)C)C(=O)N[C@@H](CCCCN)C(=O)N[C@@H](CCCCN)C(=O)N[C@@H](CC(C)C)C(=O)N[C@@H](CCC(=O)O)C(=O)N[C@@H](CCC(=O)O)C(=O)N[C@@H](C)C(=O)N[C@@H](Cc1ccc(O)cc1)C(=O)N[C@H](C(=O)N[C@@H](CC(=O)O)C(=O)N[C@@H](CC(C)C)C(=O)N[C@@H](CCCCN)C(=O)N[C@@H](CCC(=O)O)C(=O)N[C@@H](CC(C)C)C(=O)O)[C@@H](C)CC,"pseudovirus infection, inhibitor, luciferase","Caco-2, D614G pseudovirus","24 h, dual mutations",,IC50,140 nM
Nc1ccc([As]2SCC(C(=O)O)CS2)cc1 (stereo not drawn),spike-pseudotyped lentivector,A549 expressing ACE2 and TMPRSS2,10 µM,baseline: untreated,pseudovirus entry,54%
O=C(O)C(O)=CC(=O)c1ccc(O)c(O)c1,viral replication,VeroE6,50 µM,,inhibition,0%
O=C(NC1CCN(c2ncnc3[nH]cnc23)CC1)c1cccc(NS(=O)(=O)c2ccc([N+](=O)[O-])cc2)c1,viral infection,Wuhan-Hu-1,,,IC50,1030 nM
O=C(O)C(O)=CC(=O)C1(Cc2ccc(Cl)cc2)CCN(Cc2ccc3ccccc3c2)CC1,viral replication,VeroE6,50 µM,,inhibition,50%
CC[C@H](C)[C@H](NC(=O)[C@H](C)NC(=O)[C@H](CCC(=O)O)NC(=O)[C@H](CCC(=O)O)NC(=O)[C@H](CC(C)C)NC(=O)[C@H](CCCCN)NC(=O)[C@H](CCCCN)NC(=O)[C@H](CCSC)NC(=O)[C@H](CCC(=O)O)NC(=O)[C@H](Cc1ccc(O)cc1)NC(=O)[C@H](CCC(=O)O)NC(=O)[C@H](CC(C)C)NC(=O)[C@H](CC(=O)O)NC(=O)[C@H](CC(C)C)NC(=O)[C@H](Cc1ccccc1)NC(=O)[C@H](Cc1ccc(O)cc1)NC(=O)[C@@H](NC(=O)[C@H](CC(N)=O)NC(=O)[C@@H](NC(=O)[C@H](CCC(N)=O)NC(=O)[C@H](CC(=O)O)NC(=O)[C@H](CC(C)C)NC(=O)[C@@H](N)CO)[C@@H](C)CC)C(C)C)C(=O)N[C@@H](CCCCN)C(=O)N[C@@H](CCCCN)C(=O)N[C@@H](CC(C)C)C(=O)N[C@@H](CCC(=O)O)C(=O)N[C@@H](CCC(=O)O)C(=O)N[C@H](C(=O)N[C@@H](Cc1ccc(O)cc1)C(=O)N[C@H](C(=O)N[C@@H](CC(=O)O)C(=O)N[C@@H](CC(C)C)C(=O)N[C@@H](CCCCN)C(=O)N[C@@H](CCC(=O)O)C(=O)N[C@@H](CC(C)C)C(=O)O)[C@@H](C)CC)[C@@H](C)O,"pseudovirus infection, inhibitor, luciferase","Caco-2, D614G pseudovirus","24 h, dual mutations",,IC50,366 nM

# A few entries again:
SMILES,assay,test system,conditions,how to read,endpoint,value
O=C(O)C(O)=CC(=O)c1ccc(O)c(O)c1,viral replication,VeroE6,50 µM,,inhibition,0%
Nc1ccc([As]2SCC(C(=O)O)CS2)cc1 (stereo not drawn),spike-pseudotyped lentivector,A549 expressing ACE2 and TMPRSS2,10 µM,baseline: untreated,pseudovirus entry,54%
